Published values from different studies.
± gives the spread as reported.
uncharacterized protein: uncharacterized protein (Bos taurus, UniProt E1BM68)
USP3 ZnF-UBD domain: Ubiquitin carboxyl-terminal hydrolase 3, ZnF-UBD domain (USP3, Homo sapiens, UniProt Q9Y6I4)
Chain of UniProt Q9Y6I4 (whole entry, looked up): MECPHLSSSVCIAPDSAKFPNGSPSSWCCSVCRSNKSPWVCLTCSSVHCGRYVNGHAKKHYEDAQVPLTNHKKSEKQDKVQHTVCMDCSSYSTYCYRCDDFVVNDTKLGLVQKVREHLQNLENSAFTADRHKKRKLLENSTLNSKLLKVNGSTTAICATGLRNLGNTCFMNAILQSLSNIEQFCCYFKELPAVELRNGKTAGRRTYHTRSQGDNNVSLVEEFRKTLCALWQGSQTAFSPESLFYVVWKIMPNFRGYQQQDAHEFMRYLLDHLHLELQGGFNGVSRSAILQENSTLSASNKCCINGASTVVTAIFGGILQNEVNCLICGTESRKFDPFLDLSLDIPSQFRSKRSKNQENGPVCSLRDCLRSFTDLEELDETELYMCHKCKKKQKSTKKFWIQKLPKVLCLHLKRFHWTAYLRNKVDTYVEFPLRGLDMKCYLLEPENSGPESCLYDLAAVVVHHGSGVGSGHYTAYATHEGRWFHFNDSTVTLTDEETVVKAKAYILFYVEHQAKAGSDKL
Chain of UniProt Q9LJE2 (whole entry, looked up): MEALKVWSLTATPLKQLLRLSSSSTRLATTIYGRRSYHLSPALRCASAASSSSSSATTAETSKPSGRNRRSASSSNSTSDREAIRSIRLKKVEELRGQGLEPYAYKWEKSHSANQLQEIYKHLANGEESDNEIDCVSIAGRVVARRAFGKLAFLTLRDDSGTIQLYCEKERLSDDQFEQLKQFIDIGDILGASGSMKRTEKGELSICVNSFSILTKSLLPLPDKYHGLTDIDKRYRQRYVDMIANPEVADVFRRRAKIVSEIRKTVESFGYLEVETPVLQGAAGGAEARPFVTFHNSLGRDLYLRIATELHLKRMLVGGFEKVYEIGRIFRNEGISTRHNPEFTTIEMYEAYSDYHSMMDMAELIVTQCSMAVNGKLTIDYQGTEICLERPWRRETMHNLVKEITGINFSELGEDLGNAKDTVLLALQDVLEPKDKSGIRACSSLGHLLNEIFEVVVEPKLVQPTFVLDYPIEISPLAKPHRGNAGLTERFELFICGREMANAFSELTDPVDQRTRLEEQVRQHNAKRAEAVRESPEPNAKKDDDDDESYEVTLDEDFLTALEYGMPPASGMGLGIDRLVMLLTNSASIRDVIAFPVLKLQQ
Chain of UniProt P32901 (whole entry, looked up): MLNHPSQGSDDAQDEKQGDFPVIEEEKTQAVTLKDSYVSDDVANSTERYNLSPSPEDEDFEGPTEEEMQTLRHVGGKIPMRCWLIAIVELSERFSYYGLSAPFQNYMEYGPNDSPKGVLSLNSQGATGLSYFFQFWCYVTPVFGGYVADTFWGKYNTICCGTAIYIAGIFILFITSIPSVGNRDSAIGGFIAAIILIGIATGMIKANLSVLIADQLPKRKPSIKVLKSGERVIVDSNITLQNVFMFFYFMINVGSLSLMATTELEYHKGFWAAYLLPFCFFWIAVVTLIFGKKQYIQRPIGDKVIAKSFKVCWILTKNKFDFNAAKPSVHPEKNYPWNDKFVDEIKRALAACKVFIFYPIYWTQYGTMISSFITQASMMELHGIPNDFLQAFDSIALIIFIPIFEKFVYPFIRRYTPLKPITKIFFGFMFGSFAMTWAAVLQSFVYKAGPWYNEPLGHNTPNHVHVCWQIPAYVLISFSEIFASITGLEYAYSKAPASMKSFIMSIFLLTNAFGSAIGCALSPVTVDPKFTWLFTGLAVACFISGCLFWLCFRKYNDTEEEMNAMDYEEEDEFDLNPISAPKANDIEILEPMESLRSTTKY
Chain of UniProt P42338 (whole entry, looked up): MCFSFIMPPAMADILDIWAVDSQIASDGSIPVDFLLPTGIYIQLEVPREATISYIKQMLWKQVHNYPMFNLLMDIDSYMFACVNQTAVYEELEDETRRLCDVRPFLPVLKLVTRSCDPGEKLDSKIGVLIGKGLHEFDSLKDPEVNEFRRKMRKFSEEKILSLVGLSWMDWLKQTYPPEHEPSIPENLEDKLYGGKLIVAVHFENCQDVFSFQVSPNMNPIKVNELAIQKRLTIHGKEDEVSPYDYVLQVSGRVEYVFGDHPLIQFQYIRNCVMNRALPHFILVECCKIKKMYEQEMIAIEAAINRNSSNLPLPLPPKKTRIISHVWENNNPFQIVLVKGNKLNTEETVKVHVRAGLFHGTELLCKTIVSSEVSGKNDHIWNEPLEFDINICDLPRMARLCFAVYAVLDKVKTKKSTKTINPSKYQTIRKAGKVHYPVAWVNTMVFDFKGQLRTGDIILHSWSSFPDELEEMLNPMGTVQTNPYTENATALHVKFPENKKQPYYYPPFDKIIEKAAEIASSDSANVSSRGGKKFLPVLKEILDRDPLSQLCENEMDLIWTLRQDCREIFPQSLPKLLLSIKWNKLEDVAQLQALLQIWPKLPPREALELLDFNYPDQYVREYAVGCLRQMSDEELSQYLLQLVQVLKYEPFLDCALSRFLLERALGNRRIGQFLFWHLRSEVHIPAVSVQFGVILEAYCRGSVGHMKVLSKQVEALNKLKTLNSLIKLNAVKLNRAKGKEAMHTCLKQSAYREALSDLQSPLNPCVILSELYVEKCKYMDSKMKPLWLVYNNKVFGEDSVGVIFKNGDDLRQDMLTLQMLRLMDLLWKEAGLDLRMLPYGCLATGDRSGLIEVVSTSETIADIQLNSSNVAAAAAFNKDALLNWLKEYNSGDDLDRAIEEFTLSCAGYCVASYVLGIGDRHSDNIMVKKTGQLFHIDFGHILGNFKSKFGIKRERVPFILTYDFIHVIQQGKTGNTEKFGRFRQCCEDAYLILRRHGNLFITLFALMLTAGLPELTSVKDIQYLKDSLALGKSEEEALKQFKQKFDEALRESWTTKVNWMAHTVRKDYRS
Chain of UniProt P02754 (whole entry, looked up): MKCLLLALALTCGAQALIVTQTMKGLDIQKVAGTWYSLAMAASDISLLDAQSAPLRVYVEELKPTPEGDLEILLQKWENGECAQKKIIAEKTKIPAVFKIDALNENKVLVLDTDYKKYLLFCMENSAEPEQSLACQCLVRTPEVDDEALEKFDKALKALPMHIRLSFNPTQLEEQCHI
Chain of UniProt P02769 (whole entry, looked up): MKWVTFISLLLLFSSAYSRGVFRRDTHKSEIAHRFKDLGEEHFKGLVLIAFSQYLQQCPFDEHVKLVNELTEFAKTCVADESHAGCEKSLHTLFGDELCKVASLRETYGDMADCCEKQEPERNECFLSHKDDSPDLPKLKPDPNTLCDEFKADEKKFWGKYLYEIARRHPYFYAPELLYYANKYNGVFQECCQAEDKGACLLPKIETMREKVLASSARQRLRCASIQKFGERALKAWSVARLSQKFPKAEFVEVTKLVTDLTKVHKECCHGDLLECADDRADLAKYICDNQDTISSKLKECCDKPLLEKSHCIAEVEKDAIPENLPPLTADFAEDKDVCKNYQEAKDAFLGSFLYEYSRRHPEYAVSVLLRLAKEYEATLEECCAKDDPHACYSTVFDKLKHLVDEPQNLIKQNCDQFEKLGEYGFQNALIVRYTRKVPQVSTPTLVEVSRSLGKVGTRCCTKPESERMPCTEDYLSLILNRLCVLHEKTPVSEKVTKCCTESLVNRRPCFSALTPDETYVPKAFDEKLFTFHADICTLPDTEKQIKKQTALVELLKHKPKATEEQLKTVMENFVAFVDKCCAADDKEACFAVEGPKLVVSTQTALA
Chain of UniProt Q8N884 (whole entry, looked up): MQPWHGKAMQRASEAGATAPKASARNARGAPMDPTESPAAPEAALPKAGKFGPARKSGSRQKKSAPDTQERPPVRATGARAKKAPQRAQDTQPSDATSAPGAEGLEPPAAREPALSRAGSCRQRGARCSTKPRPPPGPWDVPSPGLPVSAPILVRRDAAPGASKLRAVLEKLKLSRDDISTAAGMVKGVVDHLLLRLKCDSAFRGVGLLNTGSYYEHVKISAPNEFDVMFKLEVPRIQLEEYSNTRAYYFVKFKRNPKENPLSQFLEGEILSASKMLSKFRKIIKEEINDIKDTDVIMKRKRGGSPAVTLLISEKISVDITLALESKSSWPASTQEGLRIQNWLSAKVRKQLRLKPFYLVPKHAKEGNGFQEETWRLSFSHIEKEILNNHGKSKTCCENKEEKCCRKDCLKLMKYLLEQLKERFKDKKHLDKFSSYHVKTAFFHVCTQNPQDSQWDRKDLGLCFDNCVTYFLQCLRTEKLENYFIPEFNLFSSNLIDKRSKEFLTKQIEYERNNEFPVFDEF
Chain of UniProt P07195 (whole entry, looked up): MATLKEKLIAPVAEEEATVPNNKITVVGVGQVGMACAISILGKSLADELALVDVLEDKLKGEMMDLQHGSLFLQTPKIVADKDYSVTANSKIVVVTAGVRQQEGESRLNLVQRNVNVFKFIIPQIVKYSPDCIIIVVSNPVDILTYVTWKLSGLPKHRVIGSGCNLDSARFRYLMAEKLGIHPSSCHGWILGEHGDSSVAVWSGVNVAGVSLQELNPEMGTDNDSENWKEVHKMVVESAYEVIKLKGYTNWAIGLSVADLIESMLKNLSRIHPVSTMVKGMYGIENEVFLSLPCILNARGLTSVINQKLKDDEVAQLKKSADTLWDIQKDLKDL
Chain of UniProt P29558 (whole entry, looked up): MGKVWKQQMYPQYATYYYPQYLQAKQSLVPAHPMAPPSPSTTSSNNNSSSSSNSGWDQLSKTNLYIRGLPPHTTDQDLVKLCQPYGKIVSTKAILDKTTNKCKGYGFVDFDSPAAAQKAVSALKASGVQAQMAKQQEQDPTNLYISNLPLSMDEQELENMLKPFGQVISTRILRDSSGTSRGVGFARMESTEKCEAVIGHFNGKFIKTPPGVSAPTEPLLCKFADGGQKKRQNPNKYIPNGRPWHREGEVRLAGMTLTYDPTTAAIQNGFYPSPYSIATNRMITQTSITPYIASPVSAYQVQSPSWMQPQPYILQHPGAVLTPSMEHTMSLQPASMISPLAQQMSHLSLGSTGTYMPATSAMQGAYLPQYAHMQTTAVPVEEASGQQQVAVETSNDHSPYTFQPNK

SMILES | target | assay | test system | setting | measurement | value
CC(=O)c1nccnc1C | uncharacterized protein | cAMP level, agonist, cAMP luminescence | HEK293 cells | – | EC50 | 1270 ± 313 µM
C[C@H](N)C(=O)N[C@@H](Cc1c[nH]c2ccccc12)C(=O)O | Peptide transporter PTR2 (PTR2, Saccharomyces cerevisiae, UniProt P32901) | – | – | – | Ki | 39 µM
CC(C)=CCC/C(C)=C/C=C/C(C)=C/C=C/C(C)=C/C=C/C=C(C)/C=C/C=C(C)/C=C/C=C(\C)CCC=C(C)C | Beta-lactoglobulin (LGB, Bos taurus, UniProt P02754) | binding, fluorescence quenching | PBS | 30 min, 308 K | Kd | 21.4 µM
O=C(O)Cc1nc2ccccc2[nH]1 | USP3 ZnF-UBD domain | – | – | – | Kd | > 1000 µM
NC[C@@H]1O[C@H](O[C@H]2[C@@H](O)[C@H](O[C@@H]3[C@@H](O)[C@H](N)C[C@H](N)[C@H]3O[C@H]3O[C@H](CO)[C@@H](O)[C@H](O)[C@H]3N)O[C@@H]2CO)[C@H](N)[C@@H](O)[C@@H]1O | de novo protein S23 | SPR | – | – | Kd | 10 ± 1 µM
Cc1ncsc1-c1ccc([C@H](C)NC(=O)[C@@H]2C[C@@H](O)CN2C(=O)[C@@H](NC(=O)CN2CCN(c3cc(-c4ccccc4O)nnc3N)CC2)C(C)(C)C)cc1 | SWI/SNF-related matrix-associated actin-dependent regulator of chromatin subfamily A member 4 (SMARCA4, Homo sapiens, UniProt P51532) | degrader, immunofluorescence | SW1573 | – | DC50 | 0.0105 µM
O=C(O)Cc1nc2ccccc2o1 | USP3 ZnF-UBD domain | – | – | – | Kd | > 1000 µM
CC[C@@H]1[C@H](F)C(=O)N[C@@H]1COc1nccc2cc(C(N)=O)c(OC)cc12 | Phosphatidylinositol 4,5-bisphosphate 3-kinase catalytic subunit beta isoform (PIK3CB, Homo sapiens, UniProt P42338) | ATP probe binding, KiNativ profiling, measured: ATP probe site | THP-1 cell lysate | – | IC50 | > 5 µM
O=C(O)CCOc1ccccc1 | USP3 ZnF-UBD domain | – | – | – | Kd | > 1000 µM
Cc1nn(-c2nc3ccccc3[nH]2)c(O)c1C(c1ccccn1)c1c(C)nn(-c2nc3ccccc3[nH]2)c1O | Cyclic GMP-AMP synthase, catalytic domain; with DNA (CGAS, Homo sapiens, UniProt Q8N884) | cGAS-DNA phase separation, inhibitor | – | – | EC50 | 7.38 µM
Cc1cc2nc3c(=O)[nH]c(=O)nc-3n(C[C@H](O)[C@H](O)[C@H](O)COP(=O)(O)OP(=O)(O)OC[C@H]3O[C@@H](n4cnc5c(N)ncnc54)[C@H](O)[C@@H]3O)c2cc1C | RNA-binding motif, single-stranded-interacting protein 1 (RBMS1, Homo sapiens, UniProt P29558) | binding, MS pulldown competition | SW-620 cell lysate | – | Kd | 0.008 µM
Nc1nsc(C(=O)NCC2CCCCC2)c1C#Cc1ccccc1 | Lysine--tRNA ligase, chloroplastic/mitochondrial (OVA5, Arabidopsis thaliana, UniProt Q9LJE2) | enzyme activity, inhibitor | – | – | IC50 | > 100 µM
O=C(O)CCc1nc2ccccc2c2nc(Cc3ccccc3)nn12 | USP3 ZnF-UBD domain | – | – | – | Kd | 238 µM
CCCCCCCCCCCCCCCCCCc1ccc(O)cc1 | Albumin (ALB, Bos taurus, UniProt P02769) | modified Stern–Volmer | PBS | 37 °C | Kb | 19500 µM
O=C(O)CCn1cccn1 | USP3 ZnF-UBD domain | – | – | – | Kd | > 1000 µM
Cc1ncsc1-c1ccc(CNC(=O)[C@@H]2C[C@@H](O)CN2C(=O)[C@@H](NC(=O)CCCCCCCCCCCC(=O)NCCCCC#Cc2cccc(-c3nn(-c4nc(C(=O)O)cs4)c(CC4CC4)c3Cc3ccc(S(N)(=O)=O)cc3)c2)C(C)(C)C)cc1 | L-lactate dehydrogenase B chain (LDHB, Homo sapiens, UniProt P07195) | degrader, western blot | PANC-1 | 48 h | DC50 | 0.074 ± 0.0069 µM
CCc1nccnc1C | uncharacterized protein | cAMP level, agonist, cAMP luminescence | HEK293 cells | – | EC50 | 315 ± 18.4 µM
CCCOc1ccc(OC)c(F)c1C(=O)c1ccc(C(=O)N[C@@H]2CNC[C@H]2NC(=O)c2ccc3[nH]ncc3c2)cc1 | AMPK (rat) | kinase activity | – | 10 µM | remaining activity | 2%
C#Cc1c(F)ccc2cc(O)cc(-c3ncc4c(N5CC6CCC(C5)N6)nc(OC[C@@]56CCCN5C[C@H](F)C6)nc4c3F)c12 | GTPase HRas, GDP-bound (HRAS, Homo sapiens, UniProt P01112) | SPR | – | – | Kd | 3.4 µM
O=C(O)CCn1c(=O)oc2ccccc21 | USP3 ZnF-UBD domain | – | – | – | Kd | 817 µM
CCc1nccnc1CC | Olfactory receptor (Mus musculus, UniProt Q8VGQ8) | cAMP, agonist | HEK293 transfected with Olfactory receptor | – | EC50 | 776 ± 19.1 µM
O=C(O)CCC1=Nc2cccc3cccc(c23)N1 | USP3 ZnF-UBD domain | – | – | – | Kd | > 1000 µM
C=Cc1cnccn1 | uncharacterized protein | cAMP level, agonist, cAMP luminescence | HEK293 cells | – | EC50 | > 1500 µM

Repeated from above:
SMILES | target | assay | test system | setting | measurement | value
C#Cc1c(F)ccc2cc(O)cc(-c3ncc4c(N5CC6CCC(C5)N6)nc(OC[C@@]56CCCN5C[C@H](F)C6)nc4c3F)c12 | GTPase HRas, GDP-bound (HRAS, Homo sapiens, UniProt P01112) | SPR | – | – | Kd | 3.4 µM
O=C(O)CCn1c(=O)oc2ccccc21 | USP3 ZnF-UBD domain | – | – | – | Kd | 817 µM
CCc1nccnc1CC | Olfactory receptor (Mus musculus, UniProt Q8VGQ8) | cAMP, agonist | HEK293 transfected with Olfactory receptor | – | EC50 | 776 ± 19.1 µM
